Results pooled from the literature.
Numbers after ± are the reported error.
B1: GST-OsCIPK23 (Oryza sativa, UniProt Q6ZLP5); sequence looked up; chain MSVSGGRTRVGRYELGRTLGEGTFAKVKFARNADSGENVAIKILDKDKVLKHKMIAQIKREISTMKLIRHPNVIRMHEVMASKTKIYIVMELVTGGELFDKIASRGRLKEDDARKYFQQLINAVDYCHSRGVYHRDLKPENLLLDASGTLKVSDFGLSALSQQVREDGLLHTTCGTPNYVAPEVINNKGYDGAKADLWSCGVILFVLMAGYLPFEDSNLMSLYKKIFKADFSCPSWFSTSAKKLIKKILDPNPSTRITIAELINNEWFKKGYQPPRFETADVNLDDINSIFNESGDQTQLVVERREERPSVMNAFELISTSQGLNLGTLFEKQSQGSVKRETRFASRLPANEILSKIEAAAGPMGFNVQKRNYKLKLQGENPGRKGQLAIATEVFEVTPSLYMVELRKSNGDTLEFHKFYHNISNGLKDVMWKPESSIIAGDEIQHRRSP
B2: POL30 1-258 (Saccharomyces cerevisiae, UniProt P15873); chain MLEAKFEEASLFKRIIDGFKDCVQLVNFQCKEDGIIAQAVDDSRVLLVSLEIGVEAFQEYRCDHPVTLGMDLTSLSKILRCGNNTDTLTLIADNTPDSIILLFEDTKKDRIAEYSLKLMDIDADFLKIEELQYDSTLSLPSSEFSKIVRDLSQLSDSINIMITKETIKFVADGDIGSGSVIIKPFVDMEHPETSIKLEMDQPVDLTFGAKYLLDIIKGSSLSDRVGIRLSSEAPALFQFDLKSGFLQFFLAPKFNDEE
B3: FAM126B 1-308 (Homo sapiens, UniProt Q8IXS8); chain MLGTDRCVVEEWLSEFKALPDTQITSYAATLHRKKTLVPALYKVIQDSNNELLEPVCHQLFELYRSSEVRLKRFTLQFLPELMWVYLRLTVSRDRQSNGCIEALLLGIYNLEIADKDGNNKVLSFTIPSLSKPSIYHEPSTIGSMALTEGALCQHDLIRVVYSDLHPQRETFTAQNRFEVLSFLMLCYNSAIVYMPASSYQSLCRMGSRVCVSGFPRQHEKHWKELCGRIVLDPEFMVQLLTGVYYAMYNGQWDLGQEVLDDIIYRAQLELFSQPLLVANAMKNSLPFDAPDSTQEGQKVLKVEVTPT
B4: ELM1 421-640 (Saccharomyces cerevisiae, UniProt P32801); sequence looked up; chain SSSSVNPVRNEGPVRRFFGRLLTKKGKKKTSGKGKDKVLVSATSKVTPSIHIDEEPDKECFSTTVLRSSPDSSDYCSSLGEEAIQVTDFLDTFCRSNESLPNLTVNNDKQNSDMKTDRSESSSHSSLKIPTPIKAMIRLKSSPKENGNRTHINCSQDKPSSPLMDRTVGKRTVNNSGARKLAHSSNILNFKAYINSEDSDIRETVEDVKTYLNFADNGQI
B5: TIM10 8-93 (Saccharomyces cerevisiae, UniProt P87108); sequence looked up; chain GGQPQLSSQQKIQAAEAELDLVTDMFNKLVNNCYKKCINTSYSEGELNKNESSCLDRCVAKYFETNVQVGENMQKMGQSFNAAGKF
B6: ND3 1-128 (Yarrowia lipolytica, UniProt Q9B6C7); sequence looked up; chain MNTFIIFIILIPIVGFALLAVNILLAVYKPYNEKLGAFECGLTSFNQTRLAFNAAFILVAILFLPFDLEISTLLPYVMSIYLVSNYGFTIVLLFLLILIIGFVYEINTNALKINKHNKPNTDSLIYKL
B7: VPS71 (Saccharomyces cerevisiae, UniProt Q03433); sequence looked up; chain MKALVEEIDKKTYNPDIYFTSLDPQARRYTSKKINKQGTISTSRPVKRINYSLADLEARLYTSRSEGDGNSISRQDDRNSKNSHSFEERYTQQEILQSDRRFMELNTENFSDLPNVPTLLSDLTGVPRDRIESTTKPISQTSDGLSALMGGSSFVKEHSKYGHGWVLKPETLREIQLSYKSTKLPKPKRKNTNRIVALKKVLSSKRNLHSFLDSALLNLMDKNVIYHNVYNKRYFKVLPLITTCSICGGYDSISSCVNCGNKICSVSCFKLHNETRCRNR
B8: VPH1/STV1 chimera 1-123 (Saccharomyces cerevisiae); sequence looked up; chain MAEKEEAIFRSAEMALVQFYIPQEISRDSAYTLGQLGLVQFRDLNSKVRAFQRTFVNEIRRLDNVERQYRYFYSLLKKHDIKLYEGDTDKYLDGSGELYVPPSGSVIDDYVRNASYLEERLIQLDESLDSLRSKLNDLLEQRQVIFECSKFIEVNPGIAGRATNPEIEQEERDVDEFRMTPDDISETLSDAFSFDDETPQDRGALGNDLTRNQSVEDLSFLEQGYQHRYMITGSIRRTKVDILNRILWRLLRGNLIFQNFPIEEPLLEGKEKVEKDCFIIFTHGETLLKKVKRVIDSLNGKIVSLNTRSSELVDTLNRQIDDLQRILDTTEQTLESELYAIAKELDSWFQDVTREKAIFEILNKSNYDTNRKILIAEGWIPRDELATLQARLGEMIARLGIDVPSIIQVLD
B9: CENPI 57-281 (Homo sapiens, UniProt Q92674); sequence looked up; chain ADDQAEEDALQMAVGYFEKGPIKASQNKDKTLEKHLKTVENVAWKNGLASEEIDILLNIALSGKFGNAVNTRILKCMIPATVISEDSVVKAVSWLCVGKCSGSTKVLFYRWLVAMFDFIDRKEQINLLYGFFFASLQDDALCPYVCHLLYLLTKKENVKPFRVRKLLDLQAKMGMQPHLQALLSLYKFFAPALISVSLPVRKKIYFKNSENLWKTALLAVKQRNR
B10: POL32 1-103 (Saccharomyces cerevisiae, UniProt P47110); sequence looked up; chain MDQKASYFINEKLFTEVKPVLFTDLIHHLKIGPSMAKKLMFDYYKQTTNAKYNCVVICCYKDQTIKIIHDLSNIPQQDSIIDCFIYAFNPMDSFIPYYDIIDQ
B11: CNOT1 1833-2361 (Homo sapiens, UniProt A5YKK6); sequence looked up; chain HSGISQASEYDDPPGLREKAEYLLREWVNLYHSAAAGRDSTKAFSAFVGQMHQQGILKTDDLITRFFRLCTEMCVEISYRAQAEQQHNPAANPTMIRAKCYHNLDAFVRLIALLVKHSGEATNTVTKINLLNKVLGIVVGVLLQDHDVRQSEFQQLPYHRIFIMLLLELNAPEHVLETINFQTLTAFCNTFHILRPTKAPGFVYAWLELISHRIFIARMLAHTPQQKGWPMYAQLLIDLFKYLAPFLRNVELTKPMQILYKGTLRVLLVLLHDFPEFLCDYHYGFCDVIPPNCIQLRNLILSAFPRNMRLPDPFTPNLKVDMLSEINIAPRILTNFTGVMPPQFKKDLDSYLKTRSPVTFLSDLRSNLQVSNEPGNRYNLQLINALVLYVGTQAIAHIHNKGSTPSMSTITHSAHMDIFQNLAVDLDTEGRYLFLNAIANQLRYPNSHTHYFSCTMLYLFAEANTEAIQEQITRVLLERLIVNRPHPWGLLITFIELIKNPAFKFWNHEFVHCAPEIEKLFQSVAQCCM
B12: CCDC32 L78A/L81A/K83A/K84A (Mus musculus, UniProt Q8BS39); chain MKMFESLDSSATKSGRDLWAEICSCLPSPAQEDVSDNAFSDSFMDSHPAGESHTAAADSAVQPAGKPWAPLHDSEVYAASAEAALRRIKGLNEEVTSKDMLRTLAQAKKECWDRFLQEKLASEFFVDGLDSDERTLEHFKRWLQPDKVAISTEEVQFLIPPESQAEKPEAGDKPAAAEQ
B13: PRP40 351-415 (Saccharomyces cerevisiae, UniProt P33203); chain NYTRDRIARDNFKSLLREVPIKIKANTRWSDIYPHIKSDPRFLHMLGRNGSSCLDLFLDFVDEQR
B14: POMP (Homo sapiens, UniProt Q9Y244); chain MNARGLGSELKDSIPVTELSASGPFESHDLLRKGFSCVKNELLPSHPLELSEKNFQLNQDKMNFSTLRNIQGLFAPLKLQMEFKAVQQVQRLPFLSSSNLSLDVLRGNDETIGFEDILNDPSQSEVMGEPHLMVEYKLGLL
B15: RAV2 1-351 (Saccharomyces cerevisiae, UniProt Q03956); chain MSVDLFPNDRFGAEDKYDNFKDAVKECSWLIEEIVKPQLPNIIDNFSKCLEMLESDQIFKMPVSNGIPNESNKQNDSPTVKGVITRQGQYIVDFHIVVRFPQFQRGKQVMFRMNTGLNFLLIQFSKIMTHLKNILEILNQLQVATDVSEFVSKFGVAMELLNHSLILLQNPPRDLVFPEDNNFAMKEMFQDCYSVCESTAHILGLELTLCRNELCIELRNLIKVTKKPWCEIDSKTGRSFCDQIRNQVTNERNKTLSKILSENGVQVQDSTLLNHIISSFQSEAITLPEAQELLRRGVTFDNRVVMECEKLIVSTSDPTLISISAKLNSLKASMANHQANLVASKQLSTYK
UniProt P47104, sequence (whole entry, looked up): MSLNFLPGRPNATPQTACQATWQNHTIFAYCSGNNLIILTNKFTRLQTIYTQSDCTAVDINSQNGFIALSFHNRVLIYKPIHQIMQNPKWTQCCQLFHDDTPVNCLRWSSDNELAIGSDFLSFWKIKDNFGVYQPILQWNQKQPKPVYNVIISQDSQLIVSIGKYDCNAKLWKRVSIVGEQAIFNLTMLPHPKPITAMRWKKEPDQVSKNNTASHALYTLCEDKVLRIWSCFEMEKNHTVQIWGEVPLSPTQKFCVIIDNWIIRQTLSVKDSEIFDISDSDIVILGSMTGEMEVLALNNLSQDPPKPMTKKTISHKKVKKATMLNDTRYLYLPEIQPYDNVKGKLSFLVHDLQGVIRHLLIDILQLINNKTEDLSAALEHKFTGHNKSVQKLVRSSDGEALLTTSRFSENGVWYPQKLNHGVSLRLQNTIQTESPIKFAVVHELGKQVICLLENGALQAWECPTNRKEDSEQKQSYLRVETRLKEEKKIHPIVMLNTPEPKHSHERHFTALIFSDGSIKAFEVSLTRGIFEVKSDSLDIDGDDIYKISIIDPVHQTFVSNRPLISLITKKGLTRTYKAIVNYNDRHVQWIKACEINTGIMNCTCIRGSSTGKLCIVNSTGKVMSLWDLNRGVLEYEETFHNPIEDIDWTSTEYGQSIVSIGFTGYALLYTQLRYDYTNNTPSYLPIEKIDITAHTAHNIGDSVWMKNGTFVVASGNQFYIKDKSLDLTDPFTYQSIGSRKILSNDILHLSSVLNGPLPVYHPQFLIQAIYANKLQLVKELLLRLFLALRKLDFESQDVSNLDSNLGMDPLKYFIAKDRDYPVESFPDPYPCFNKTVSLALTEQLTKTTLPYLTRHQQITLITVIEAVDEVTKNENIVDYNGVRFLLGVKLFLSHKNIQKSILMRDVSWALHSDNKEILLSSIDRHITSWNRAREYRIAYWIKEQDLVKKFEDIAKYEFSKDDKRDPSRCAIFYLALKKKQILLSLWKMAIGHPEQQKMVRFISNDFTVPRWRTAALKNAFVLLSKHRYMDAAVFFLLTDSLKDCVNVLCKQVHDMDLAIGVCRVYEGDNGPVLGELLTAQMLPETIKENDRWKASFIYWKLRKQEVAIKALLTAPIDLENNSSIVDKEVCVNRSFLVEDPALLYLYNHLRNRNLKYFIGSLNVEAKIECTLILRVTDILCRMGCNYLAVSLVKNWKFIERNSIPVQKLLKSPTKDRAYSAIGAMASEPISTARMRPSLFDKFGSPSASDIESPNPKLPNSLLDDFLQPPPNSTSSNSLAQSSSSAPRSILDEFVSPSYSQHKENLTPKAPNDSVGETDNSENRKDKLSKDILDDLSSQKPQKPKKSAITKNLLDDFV
UniProt Q99PI8, sequence (whole entry, looked up): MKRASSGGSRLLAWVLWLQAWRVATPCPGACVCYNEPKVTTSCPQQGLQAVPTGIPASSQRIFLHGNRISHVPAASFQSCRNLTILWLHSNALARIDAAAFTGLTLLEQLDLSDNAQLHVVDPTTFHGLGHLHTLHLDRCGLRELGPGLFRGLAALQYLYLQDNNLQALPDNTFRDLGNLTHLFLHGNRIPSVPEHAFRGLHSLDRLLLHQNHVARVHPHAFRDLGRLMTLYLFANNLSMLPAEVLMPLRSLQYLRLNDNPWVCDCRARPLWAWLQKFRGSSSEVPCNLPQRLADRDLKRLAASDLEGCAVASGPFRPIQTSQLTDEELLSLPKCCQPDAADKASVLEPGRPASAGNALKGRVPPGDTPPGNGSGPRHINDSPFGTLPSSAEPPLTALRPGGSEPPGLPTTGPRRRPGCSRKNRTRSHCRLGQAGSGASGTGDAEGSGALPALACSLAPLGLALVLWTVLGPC
UniProt O60573, sequence (whole entry, unmodified, looked up): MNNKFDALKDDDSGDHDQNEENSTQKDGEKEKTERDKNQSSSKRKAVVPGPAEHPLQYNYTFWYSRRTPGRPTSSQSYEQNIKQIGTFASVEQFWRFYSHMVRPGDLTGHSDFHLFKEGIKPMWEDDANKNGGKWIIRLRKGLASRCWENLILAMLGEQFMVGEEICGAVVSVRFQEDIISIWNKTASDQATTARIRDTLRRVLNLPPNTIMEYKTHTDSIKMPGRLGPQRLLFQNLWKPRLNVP
UniProt Q86TV6, sequence (whole entry, looked up): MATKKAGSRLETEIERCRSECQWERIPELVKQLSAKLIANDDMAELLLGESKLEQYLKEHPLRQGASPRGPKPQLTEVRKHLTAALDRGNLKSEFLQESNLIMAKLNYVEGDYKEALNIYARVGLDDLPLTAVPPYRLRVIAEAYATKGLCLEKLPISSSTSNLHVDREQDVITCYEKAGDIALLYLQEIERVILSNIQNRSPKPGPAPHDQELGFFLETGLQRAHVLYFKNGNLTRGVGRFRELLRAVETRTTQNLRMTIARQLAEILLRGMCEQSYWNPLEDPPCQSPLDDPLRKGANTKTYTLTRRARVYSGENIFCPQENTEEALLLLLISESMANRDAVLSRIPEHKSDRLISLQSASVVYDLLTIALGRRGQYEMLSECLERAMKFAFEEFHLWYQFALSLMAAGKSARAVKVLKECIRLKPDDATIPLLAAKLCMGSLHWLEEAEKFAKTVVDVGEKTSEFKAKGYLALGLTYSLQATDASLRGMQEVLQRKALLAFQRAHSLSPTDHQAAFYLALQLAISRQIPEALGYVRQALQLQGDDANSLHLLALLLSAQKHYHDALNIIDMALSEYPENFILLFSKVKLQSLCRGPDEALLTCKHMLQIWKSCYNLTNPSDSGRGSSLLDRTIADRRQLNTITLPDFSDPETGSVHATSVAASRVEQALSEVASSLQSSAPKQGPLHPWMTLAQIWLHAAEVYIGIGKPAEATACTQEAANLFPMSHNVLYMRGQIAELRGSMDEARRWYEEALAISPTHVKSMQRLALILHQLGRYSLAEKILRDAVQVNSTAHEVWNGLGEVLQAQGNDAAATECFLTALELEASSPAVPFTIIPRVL
UniProt P46957, sequence (whole entry, looked up): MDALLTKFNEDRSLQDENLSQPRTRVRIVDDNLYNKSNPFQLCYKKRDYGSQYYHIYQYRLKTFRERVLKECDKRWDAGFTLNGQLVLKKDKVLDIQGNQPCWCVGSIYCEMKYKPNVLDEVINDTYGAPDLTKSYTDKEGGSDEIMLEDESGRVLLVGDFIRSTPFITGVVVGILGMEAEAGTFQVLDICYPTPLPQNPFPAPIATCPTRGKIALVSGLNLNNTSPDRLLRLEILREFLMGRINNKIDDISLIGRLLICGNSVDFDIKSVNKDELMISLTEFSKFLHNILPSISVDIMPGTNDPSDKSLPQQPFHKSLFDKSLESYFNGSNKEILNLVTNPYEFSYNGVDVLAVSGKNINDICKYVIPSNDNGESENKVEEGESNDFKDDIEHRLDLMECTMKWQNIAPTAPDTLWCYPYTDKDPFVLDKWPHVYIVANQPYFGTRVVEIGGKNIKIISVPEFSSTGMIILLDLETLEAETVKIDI
UniProt Q14671, sequence (whole entry, looked up): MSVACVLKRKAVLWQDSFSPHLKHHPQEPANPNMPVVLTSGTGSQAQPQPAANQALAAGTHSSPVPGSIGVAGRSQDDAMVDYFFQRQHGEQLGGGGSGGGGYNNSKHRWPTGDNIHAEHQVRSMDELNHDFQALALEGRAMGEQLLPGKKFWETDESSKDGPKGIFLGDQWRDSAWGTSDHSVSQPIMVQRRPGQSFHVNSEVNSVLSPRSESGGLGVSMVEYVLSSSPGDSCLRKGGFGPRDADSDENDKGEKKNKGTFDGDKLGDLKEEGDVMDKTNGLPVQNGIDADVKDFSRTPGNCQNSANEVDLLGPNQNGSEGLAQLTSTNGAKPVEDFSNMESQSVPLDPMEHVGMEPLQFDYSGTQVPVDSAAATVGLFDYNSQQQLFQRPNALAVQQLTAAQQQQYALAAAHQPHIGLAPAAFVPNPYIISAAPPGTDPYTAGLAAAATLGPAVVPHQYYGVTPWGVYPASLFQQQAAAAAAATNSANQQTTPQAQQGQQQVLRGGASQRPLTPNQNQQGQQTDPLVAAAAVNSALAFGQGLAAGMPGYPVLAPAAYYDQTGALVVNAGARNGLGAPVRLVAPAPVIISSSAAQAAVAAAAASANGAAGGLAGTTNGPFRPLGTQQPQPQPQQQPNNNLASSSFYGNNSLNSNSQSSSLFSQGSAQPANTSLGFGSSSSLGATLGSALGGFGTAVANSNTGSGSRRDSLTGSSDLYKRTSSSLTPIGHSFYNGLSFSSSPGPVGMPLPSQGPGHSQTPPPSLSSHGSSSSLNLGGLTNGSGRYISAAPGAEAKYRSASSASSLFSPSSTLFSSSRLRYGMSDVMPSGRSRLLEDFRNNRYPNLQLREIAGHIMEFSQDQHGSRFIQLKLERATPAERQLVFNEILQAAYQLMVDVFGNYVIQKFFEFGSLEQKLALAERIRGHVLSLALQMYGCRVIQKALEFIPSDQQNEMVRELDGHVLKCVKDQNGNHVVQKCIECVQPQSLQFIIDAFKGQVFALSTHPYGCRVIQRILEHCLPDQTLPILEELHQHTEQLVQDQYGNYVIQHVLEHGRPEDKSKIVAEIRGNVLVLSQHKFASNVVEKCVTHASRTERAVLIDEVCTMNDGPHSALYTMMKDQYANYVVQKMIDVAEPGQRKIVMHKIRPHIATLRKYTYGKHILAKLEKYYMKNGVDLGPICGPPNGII
UniProt Q12509, sequence (whole entry, looked up): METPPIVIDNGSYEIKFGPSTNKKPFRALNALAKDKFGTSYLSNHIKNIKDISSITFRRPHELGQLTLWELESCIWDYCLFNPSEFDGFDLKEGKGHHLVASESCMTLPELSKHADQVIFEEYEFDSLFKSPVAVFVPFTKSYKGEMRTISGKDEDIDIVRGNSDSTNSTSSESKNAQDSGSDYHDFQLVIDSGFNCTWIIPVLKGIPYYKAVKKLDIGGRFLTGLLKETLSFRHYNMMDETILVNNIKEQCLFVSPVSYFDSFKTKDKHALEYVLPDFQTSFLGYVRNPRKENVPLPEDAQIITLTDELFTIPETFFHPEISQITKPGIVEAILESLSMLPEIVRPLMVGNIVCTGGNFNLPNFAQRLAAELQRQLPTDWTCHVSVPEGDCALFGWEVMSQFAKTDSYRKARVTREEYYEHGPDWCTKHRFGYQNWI

For `B1 (GST-OsCIPK23)`, binding read “binds” (OsAKT1 C-terminal 438-935 (Oryza sativa, UniProt Q0JKV1); pull-down).
`B2 (POL30 1-258)`: binding “binds” (RFC3 (Saccharomyces cerevisiae, UniProt P38629); cryo-EM).
For `B3 (FAM126B 1-308)`, binding read “binds” (TTC7B (Homo sapiens, UniProt Q86TV6); SEC).
`ATKAARKSAPATG (H3 peptide 22-34 (UniProt P68431); K27me3)`: binding “binds” (CBX7 8-62 D50C/R52D (Homo sapiens, UniProt O95931); array; peptide).
The ΔH of `KYKLADYRYGREEMLALYVK (GIGYF1(33-52) peptide; sequence looked up)` is reported as -23 ± 3 kcal/mol (EIF4E2 (Homo sapiens, UniProt O60573); ITC; peptide; pH 7.0, 20 °C, GB1-stabilized peptide titration).
Under binding, `B4 (ELM1 421-640)` is recorded as “binds” (GIN4 K48A (Saccharomyces cerevisiae, UniProt Q12263); pull-down).
Under binding, `GFLSPAGNRPPPVSAHNSILKTAKGGQSASRGRIRFRADVPRGADESIEDNG (mel-28 1047-1098 (Caenorhabditis elegans, UniProt Q18508); sequence looked up)` is recorded as “binds” (gsp-2 (Caenorhabditis elegans, UniProt P48727); pull-down).
For `FGA (Homo sapiens, UniProt P02671)`, cross-linked residues read “K100 to K191” (HTR2A (Homo sapiens, UniProt P28223); cross-linking MS; together with: DSSO).
The MIC of `colistin` is reported as 2 mg/L (Pseudomonas aeruginosa; broth microdilution; clinical isolate RKI-No_696/15).
`B5 (TIM10 8-93)` — result for binding: “binds” (TIM9 1-87 (Saccharomyces cerevisiae, UniProt O74700); SEC).
`B6 (ND3 1-128)`: binding “binds” (ND6 1-185 (Yarrowia lipolytica, UniProt Q9B6E9); cryo-EM).
Under binding, `B7 (VPS71)` is recorded as “binds” (ARP6 (Saccharomyces cerevisiae, UniProt Q12509); cryo-EM).
`B8 (VPH1/STV1 chimera 1-123)`: binding “binds” (RAV1 679-898 (Saccharomyces cerevisiae, UniProt P47104); pull-down).
Under binding, `B9 (CENPI 57-281)` is recorded as “binds” (CENP-H/CENP-K (Homo sapiens); SEC).
`B10 (POL32 1-103)` — result for binding: “binds” (POL31 (Saccharomyces cerevisiae, UniProt P46957); SAXS).
For `B11 (CNOT1 1833-2361)`, binding read “binds” (PUM1 589-1186 (Homo sapiens, UniProt Q14671); cross-linking).
`ARHGEF40 (Homo sapiens, UniProt Q8TER5)` — result for binding: “binds” (ARHGEF11 Y885A (Homo sapiens, UniProt O15085); co-IP).
`VHGAWDEWSPWSLCSSTCGRGFRDRTRTCRPPQFGGNPCEGPEKQTKFCNIALCP (ADGRB1 TSR3 408-462 (Mus musculus, UniProt Q3UHD1-1); O-fucose-glucose/C-mannosyl; sequence looked up)`: binding “binds” (Rtn4r 27-310 (Mus musculus, UniProt Q99PI8); SEC).
`B12 (CCDC32 L78A/L81A/K83A/K84A)`: binding “binds” (AP-2 core (Mus musculus); pull-down; liposomes).
For `11-deoxycorticosterone`, the Kd was 1520 nM (CYP11B2 (human); substrate binding, stopped-flow global kinetic fitting; purified enzyme; model, 4-state, linear IF, together with: 10-fold excess adrenodoxin).
`B13 (PRP40 351-415)`: binding “binds” (SNU71 (Saccharomyces cerevisiae, UniProt P53207); pull-down).
`B14 (POMP)`: binding “binds” (PSMA3 (Homo sapiens, UniProt P25788); cryo-EM).
Under binding, `RKAKTKEGKGPNARRK (CHD4 258-273 (Homo sapiens, UniProt Q14839); sequence looked up)` is recorded as “binds” (ATRX 1-321 D207A/D208A/D212A/D214A/D217A/E218A (Homo sapiens, UniProt P46100); ITC; peptide; 25 °C).
Under binding, `B15 (RAV2 1-351)` is recorded as “binds” (RAV1 1-1357 (Saccharomyces cerevisiae, UniProt P47104); cryo-EM structure).

A few entries again:
Under binding, `RKAKTKEGKGPNARRK (CHD4 258-273 (Homo sapiens, UniProt Q14839); sequence looked up)` is recorded as “binds” (ATRX 1-321 D207A/D208A/D212A/D214A/D217A/E218A (Homo sapiens, UniProt P46100); ITC; peptide; 25 °C).
Under binding, `B15 (RAV2 1-351)` is recorded as “binds” (RAV1 1-1357 (Saccharomyces cerevisiae, UniProt P47104); cryo-EM structure).
